Results gathered from unrelated publications.
Each numbered part is a random draw from the data of one study; scales do not carry over between parts. Several values in a cell are separate wells, animals, samples, runs or records.
UniProt P37023, sequence (whole entry, looked up): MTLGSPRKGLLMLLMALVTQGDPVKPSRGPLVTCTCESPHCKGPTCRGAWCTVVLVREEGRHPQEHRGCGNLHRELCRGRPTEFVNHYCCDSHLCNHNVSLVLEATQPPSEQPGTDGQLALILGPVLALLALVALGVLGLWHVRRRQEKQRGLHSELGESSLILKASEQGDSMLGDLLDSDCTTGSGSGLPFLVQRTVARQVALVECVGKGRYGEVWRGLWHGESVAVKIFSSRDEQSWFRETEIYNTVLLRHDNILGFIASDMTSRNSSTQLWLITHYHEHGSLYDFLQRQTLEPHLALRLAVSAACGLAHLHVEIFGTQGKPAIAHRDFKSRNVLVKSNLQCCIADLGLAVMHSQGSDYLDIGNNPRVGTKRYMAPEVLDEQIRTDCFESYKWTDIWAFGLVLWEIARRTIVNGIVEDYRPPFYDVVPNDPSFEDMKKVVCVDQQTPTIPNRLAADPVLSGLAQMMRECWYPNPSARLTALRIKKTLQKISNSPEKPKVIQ
UniProt P42336, sequence (whole entry, unmodified, looked up): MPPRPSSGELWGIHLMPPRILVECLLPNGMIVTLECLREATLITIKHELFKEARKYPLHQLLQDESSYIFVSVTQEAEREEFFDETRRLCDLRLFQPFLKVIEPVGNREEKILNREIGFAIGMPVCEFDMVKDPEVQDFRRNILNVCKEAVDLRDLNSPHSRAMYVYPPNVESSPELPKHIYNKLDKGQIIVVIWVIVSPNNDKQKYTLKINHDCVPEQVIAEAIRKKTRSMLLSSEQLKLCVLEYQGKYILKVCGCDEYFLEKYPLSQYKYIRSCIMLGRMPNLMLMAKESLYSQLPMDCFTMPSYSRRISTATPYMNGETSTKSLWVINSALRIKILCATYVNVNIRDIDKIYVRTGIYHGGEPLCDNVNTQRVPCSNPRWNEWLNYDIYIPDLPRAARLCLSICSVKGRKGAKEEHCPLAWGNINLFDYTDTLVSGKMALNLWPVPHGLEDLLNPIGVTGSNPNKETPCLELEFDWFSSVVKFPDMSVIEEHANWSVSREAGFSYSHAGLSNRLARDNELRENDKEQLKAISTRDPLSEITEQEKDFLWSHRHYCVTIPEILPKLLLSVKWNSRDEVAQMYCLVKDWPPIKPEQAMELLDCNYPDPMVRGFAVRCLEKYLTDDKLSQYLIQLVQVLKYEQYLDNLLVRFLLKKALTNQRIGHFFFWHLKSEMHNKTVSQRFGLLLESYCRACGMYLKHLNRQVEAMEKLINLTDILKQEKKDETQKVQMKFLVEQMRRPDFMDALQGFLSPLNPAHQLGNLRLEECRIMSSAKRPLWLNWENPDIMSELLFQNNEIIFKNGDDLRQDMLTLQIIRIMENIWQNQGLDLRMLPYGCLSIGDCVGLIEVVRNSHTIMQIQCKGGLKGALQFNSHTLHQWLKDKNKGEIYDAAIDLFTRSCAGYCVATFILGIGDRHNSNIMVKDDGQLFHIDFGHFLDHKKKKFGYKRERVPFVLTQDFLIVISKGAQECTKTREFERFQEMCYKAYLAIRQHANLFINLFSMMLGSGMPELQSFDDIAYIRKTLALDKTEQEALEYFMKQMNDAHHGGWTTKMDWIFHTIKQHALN
UniProt Q9H0K1, sequence (whole entry, looked up): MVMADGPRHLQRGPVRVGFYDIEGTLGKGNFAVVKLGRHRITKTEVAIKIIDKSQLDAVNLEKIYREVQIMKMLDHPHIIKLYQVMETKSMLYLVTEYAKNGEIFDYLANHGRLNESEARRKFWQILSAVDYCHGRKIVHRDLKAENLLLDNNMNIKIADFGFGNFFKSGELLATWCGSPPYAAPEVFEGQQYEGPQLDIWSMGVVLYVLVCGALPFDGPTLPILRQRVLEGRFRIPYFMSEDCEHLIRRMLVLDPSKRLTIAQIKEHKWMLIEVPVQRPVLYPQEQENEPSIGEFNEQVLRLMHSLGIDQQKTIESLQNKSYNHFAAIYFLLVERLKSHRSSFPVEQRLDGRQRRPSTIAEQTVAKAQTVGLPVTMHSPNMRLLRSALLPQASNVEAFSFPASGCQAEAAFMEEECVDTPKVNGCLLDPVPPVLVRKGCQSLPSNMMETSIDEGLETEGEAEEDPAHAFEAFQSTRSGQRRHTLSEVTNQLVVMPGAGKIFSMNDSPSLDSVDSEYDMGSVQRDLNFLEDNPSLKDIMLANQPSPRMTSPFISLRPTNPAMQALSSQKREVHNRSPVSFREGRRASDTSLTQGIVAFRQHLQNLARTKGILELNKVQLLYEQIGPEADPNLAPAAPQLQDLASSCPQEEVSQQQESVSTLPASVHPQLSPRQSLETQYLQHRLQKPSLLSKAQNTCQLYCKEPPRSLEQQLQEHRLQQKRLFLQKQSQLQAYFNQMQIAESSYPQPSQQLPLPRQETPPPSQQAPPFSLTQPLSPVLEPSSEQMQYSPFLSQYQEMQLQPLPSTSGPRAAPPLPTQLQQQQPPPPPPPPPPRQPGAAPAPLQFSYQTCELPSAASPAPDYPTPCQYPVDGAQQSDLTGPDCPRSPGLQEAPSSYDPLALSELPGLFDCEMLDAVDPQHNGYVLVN
UniProt P49840, sequence (whole entry, looked up): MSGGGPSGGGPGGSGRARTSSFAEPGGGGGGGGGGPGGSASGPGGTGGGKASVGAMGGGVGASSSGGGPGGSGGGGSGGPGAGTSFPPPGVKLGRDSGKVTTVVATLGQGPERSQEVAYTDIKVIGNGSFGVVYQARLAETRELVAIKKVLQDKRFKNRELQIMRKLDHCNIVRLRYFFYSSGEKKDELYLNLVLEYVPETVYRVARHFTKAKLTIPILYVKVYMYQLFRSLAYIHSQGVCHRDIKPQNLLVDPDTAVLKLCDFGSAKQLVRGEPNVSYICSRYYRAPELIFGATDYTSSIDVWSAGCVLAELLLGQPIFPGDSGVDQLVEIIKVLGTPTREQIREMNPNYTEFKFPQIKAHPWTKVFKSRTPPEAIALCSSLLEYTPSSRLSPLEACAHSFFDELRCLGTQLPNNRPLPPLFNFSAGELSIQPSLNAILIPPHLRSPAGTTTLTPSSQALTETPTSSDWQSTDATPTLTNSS
UniProt O76039, sequence (whole entry, looked up): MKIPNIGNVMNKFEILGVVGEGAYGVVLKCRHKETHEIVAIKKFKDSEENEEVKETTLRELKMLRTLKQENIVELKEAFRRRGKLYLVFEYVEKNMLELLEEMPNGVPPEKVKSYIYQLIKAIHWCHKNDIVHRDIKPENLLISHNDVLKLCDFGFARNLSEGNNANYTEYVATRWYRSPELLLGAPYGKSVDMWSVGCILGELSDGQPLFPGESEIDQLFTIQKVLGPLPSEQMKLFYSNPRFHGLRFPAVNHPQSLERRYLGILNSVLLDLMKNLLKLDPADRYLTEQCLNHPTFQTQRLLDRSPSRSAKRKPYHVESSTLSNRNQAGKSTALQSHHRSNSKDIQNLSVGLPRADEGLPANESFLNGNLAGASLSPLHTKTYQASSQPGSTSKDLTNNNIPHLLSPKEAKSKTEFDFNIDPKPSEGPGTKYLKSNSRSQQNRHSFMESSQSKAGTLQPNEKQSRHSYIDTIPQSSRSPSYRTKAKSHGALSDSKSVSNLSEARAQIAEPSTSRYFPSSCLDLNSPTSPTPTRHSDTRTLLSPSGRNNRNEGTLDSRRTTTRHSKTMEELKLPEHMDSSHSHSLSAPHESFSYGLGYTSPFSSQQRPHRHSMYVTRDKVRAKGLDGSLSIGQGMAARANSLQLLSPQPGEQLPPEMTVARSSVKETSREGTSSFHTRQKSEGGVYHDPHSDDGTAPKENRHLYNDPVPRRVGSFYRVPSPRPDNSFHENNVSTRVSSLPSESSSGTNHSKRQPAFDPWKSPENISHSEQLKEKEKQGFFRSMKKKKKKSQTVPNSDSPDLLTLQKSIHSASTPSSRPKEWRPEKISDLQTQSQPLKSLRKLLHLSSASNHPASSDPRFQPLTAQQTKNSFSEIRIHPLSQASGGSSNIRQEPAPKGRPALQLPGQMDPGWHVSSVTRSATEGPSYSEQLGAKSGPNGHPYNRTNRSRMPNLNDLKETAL
UniProt Q9HBH9, sequence (whole entry, looked up): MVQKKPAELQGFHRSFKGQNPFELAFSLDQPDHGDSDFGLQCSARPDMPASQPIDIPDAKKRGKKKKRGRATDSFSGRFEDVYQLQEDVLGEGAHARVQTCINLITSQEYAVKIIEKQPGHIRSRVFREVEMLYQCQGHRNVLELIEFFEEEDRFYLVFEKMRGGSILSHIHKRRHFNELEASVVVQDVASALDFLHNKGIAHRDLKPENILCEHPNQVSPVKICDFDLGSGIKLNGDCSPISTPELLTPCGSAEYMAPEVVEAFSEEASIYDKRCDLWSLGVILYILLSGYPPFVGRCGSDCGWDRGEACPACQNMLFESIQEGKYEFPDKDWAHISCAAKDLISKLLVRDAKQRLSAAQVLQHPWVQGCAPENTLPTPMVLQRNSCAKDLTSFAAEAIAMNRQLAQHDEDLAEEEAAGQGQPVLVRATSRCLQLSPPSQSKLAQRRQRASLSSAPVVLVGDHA
UniProt Q96SB4, sequence (whole entry, looked up): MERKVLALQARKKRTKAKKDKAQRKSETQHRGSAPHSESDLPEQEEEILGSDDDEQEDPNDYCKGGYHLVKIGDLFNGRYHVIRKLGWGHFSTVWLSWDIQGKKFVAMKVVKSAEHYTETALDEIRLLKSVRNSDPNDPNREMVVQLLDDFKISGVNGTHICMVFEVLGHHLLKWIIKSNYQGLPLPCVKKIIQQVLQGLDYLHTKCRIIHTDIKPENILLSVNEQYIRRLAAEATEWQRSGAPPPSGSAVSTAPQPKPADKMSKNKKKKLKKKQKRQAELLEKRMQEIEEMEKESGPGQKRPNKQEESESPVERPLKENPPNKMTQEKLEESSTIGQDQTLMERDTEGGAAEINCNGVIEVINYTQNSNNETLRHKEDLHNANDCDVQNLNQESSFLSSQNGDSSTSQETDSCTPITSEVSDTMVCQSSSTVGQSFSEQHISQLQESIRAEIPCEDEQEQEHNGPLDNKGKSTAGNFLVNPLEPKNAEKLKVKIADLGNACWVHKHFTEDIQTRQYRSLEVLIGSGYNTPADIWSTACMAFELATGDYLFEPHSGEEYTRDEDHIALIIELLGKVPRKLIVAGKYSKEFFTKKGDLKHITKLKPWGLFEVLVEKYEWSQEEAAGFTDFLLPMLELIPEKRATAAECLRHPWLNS

Set 1 — technique: phase 2a trial; host: idiopathic pulmonary fibrosis patients
Structure (SMILES): CC(C)n1cnc(-c2ccc(F)cc2)c1-c1ncc(C(=O)Nc2ccc(N3CCN(C)CC3)cc2)[nH]1
It gave 0% for “patients with dyspnoea” (30 mg once daily, adverse event grade 1).
It gave 0% for “patients with dyspnoea” (30 mg once daily, adverse event grade 5).
The “patients with dyspnoea” was 0% (30 mg once daily, adverse event grade 4).
The “patients with dyspnoea” was 0% (60 mg once daily, adverse event grade 3).

Set 2 — concentration: 1 µM
Compound: C[C@H]1CC[C@H](n2c3cnccc3c3cnc(Nc4ccc5c(n4)CCN(C(=O)CO)C5)nc32)CC1
The remaining binding was 69% (Misshapen-like kinase 1 (MINK1, Homo sapiens, UniProt Q8N4C8); binding, competition with immobilised ligand).
The remaining binding was 100% (Cyclin-dependent kinase 19 (CDK19, Homo sapiens, UniProt Q9BWU1); DiscoverX KINOMEscan).
It gave 77% for remaining binding (Serine/threonine-protein kinase ULK3 (ULK3, Homo sapiens, UniProt Q6PHR2); binding, competition with immobilised ligand).
The remaining binding was 100% (Activin receptor type-1-like (ACVRL1, Homo sapiens, UniProt P37023); binding, competition with immobilised ligand).
The remaining binding was 18% (Ribosomal protein S6 kinase alpha-2, N-terminal kinase domain (RPS6KA2, Homo sapiens, UniProt Q15349); binding, competition with immobilised ligand).

Set 3 — effect on: cell-free assay; technique: competition with immobilised ligand; concentration: 1 µM
Compound: CCCOc1ccc([C@@H]2[C@@H](C(=O)O)[C@H](c3ccc4c(c3)OCO4)CN2CC(=O)Nc2c(CC)cccc2CC)cc1
The remaining binding was 94% (Tyrosine-protein kinase ZAP-70 (ZAP70, Homo sapiens, UniProt P43403)).
It gave 83% for remaining binding (Cyclin-dependent kinase-like 5 (CDKL5, Homo sapiens, UniProt O76039)).
For Ephrin type-B receptor 1 (EPHB1, Homo sapiens, UniProt P54762): remaining binding read 91%.
The remaining binding was 87% (MAP kinase-interacting serine/threonine-protein kinase 2 (MKNK2, Homo sapiens, UniProt Q9HBH9)).
The remaining binding was 73% (Phosphatidylinositol 4,5-bisphosphate 3-kinase catalytic subunit gamma isoform (PIK3CG, Homo sapiens, UniProt P48736)).
It gave 100% for remaining binding (SRSF protein kinase 2 (SRPK2, Homo sapiens, UniProt P78362)).
For Tyrosine-protein kinase ABL1, phosphorylated (ABL1, Homo sapiens, UniProt P00519, Y253F): remaining binding read 87%.
It gave 94% for remaining binding (SRSF protein kinase 1 (SRPK1, Homo sapiens, UniProt Q96SB4)).
Mitogen-activated protein kinase 14 (MAPK14, Homo sapiens, UniProt Q16539) — remaining binding: 100%.
Serine/threonine-protein kinase MRCK alpha (CDC42BPA, Homo sapiens, UniProt Q5VT25) — remaining binding: 90%.
Serine/threonine-protein kinase WNK1 (WNK1, Homo sapiens, UniProt Q9H4A3) — remaining binding: 91%.
It gave 96% for remaining binding (Serine/threonine-protein kinase SIK2 (SIK2, Homo sapiens, UniProt Q9H0K1)).
The remaining binding was 95% (Mitogen-activated protein kinase 4 (MAPK4, Homo sapiens, UniProt P31152)).
The remaining binding was 68% (Phosphatidylinositol 4,5-bisphosphate 3-kinase catalytic subunit alpha isoform (PIK3CA, Homo sapiens, UniProt P42336, E545K)).
It gave 100% for remaining binding (Glycogen synthase kinase-3 alpha (GSK3A, Homo sapiens, UniProt P49840)).

Set 4 — cell line: mouse MPNST tumor cells; technique: high-content immunofluorescence imaging; measured: nuclear SOX9; concentration: 10 µM; time: 12 h; setting: mean of 2 replicates; reference: DMSO control; direction: higher = more nuclear SOX9
For `CC(=O)O[C@@]12CO[C@@H]1C[C@H](O)[C@@]1(C)C(=O)[C@H](O)C3=C(C)[C@@H](OC(=O)[C@H](O)[C@@H](NC(=O)OC(C)(C)C)c4ccccc4)C[C@@](O)([C@@H](OC(=O)c4ccccc4)[C@H]21)C3(C)C`, “nuclear SOX9 intensity” read 144 % of DMSO and 163 % of DMSO and 123 % of DMSO.
For `Cc1c(C(=O)NN2CCS(=O)(=O)CC2)nn(-c2ccc(Cl)cc2Cl)c1-c1ccc(C#CCCC#N)cc1`, “nuclear SOX9 intensity” read 89.5 % of DMSO.
`CC(C)(C)OC(=O)CN(Cc1ccc(Cl)cc1)Cc1ccc([N+](=O)[O-])s1`: “nuclear SOX9 intensity” 129 % of DMSO.

Set 5
SMILES: c1ccc(Oc2ccc(Nc3c4c(nc5ccccc35)CCC4)cc2)cc1
HepG2; resazurin; 0.166 µM, 48 h — cytotoxicity: 5%.
PMA-differentiated THP-1 macrophages; 40 µM, 64 h — cytotoxicity: 79% and 73%.
It gave 2% and 1% for cytotoxicity (HepG2; resazurin; 0.066 µM, 48 h).

Repeated from above (set 3):
Serine/threonine-protein kinase WNK1 (WNK1, Homo sapiens, UniProt Q9H4A3) — remaining binding: 91%.
The remaining binding was 95% (Mitogen-activated protein kinase 4 (MAPK4, Homo sapiens, UniProt P31152)).
The remaining binding was 87% (MAP kinase-interacting serine/threonine-protein kinase 2 (MKNK2, Homo sapiens, UniProt Q9HBH9)).
It gave 96% for remaining binding (Serine/threonine-protein kinase SIK2 (SIK2, Homo sapiens, UniProt Q9H0K1)).
The remaining binding was 68% (Phosphatidylinositol 4,5-bisphosphate 3-kinase catalytic subunit alpha isoform (PIK3CA, Homo sapiens, UniProt P42336, E545K)).
